Results from different studies.
Each line is one published result; not all experiments were run side by side. “And” joins repeats or separate records; there may be more than shown. ± gives the spread as reported.
AKT1: RAC-alpha serine/threonine-protein kinase (AKT1, Homo sapiens, UniProt P31749)
Chain of UniProt P31749 (whole entry, looked up): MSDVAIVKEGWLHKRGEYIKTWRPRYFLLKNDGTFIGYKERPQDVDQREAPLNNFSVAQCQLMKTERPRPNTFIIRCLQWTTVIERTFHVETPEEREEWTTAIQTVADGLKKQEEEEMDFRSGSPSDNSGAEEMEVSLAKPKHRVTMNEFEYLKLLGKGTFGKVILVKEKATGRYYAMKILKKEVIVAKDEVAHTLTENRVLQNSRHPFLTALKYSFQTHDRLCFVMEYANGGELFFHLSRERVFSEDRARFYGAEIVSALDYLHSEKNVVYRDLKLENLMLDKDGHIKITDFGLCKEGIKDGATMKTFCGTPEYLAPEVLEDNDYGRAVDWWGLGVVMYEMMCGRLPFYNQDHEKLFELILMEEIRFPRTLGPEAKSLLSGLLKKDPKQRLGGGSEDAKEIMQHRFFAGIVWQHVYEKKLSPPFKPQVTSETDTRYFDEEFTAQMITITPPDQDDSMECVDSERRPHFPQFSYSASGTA
GLP1R: Glucagon-like peptide 1 receptor (GLP1R, Homo sapiens, UniProt P43220)
Chain of UniProt Q64663 (whole entry, unmodified, looked up): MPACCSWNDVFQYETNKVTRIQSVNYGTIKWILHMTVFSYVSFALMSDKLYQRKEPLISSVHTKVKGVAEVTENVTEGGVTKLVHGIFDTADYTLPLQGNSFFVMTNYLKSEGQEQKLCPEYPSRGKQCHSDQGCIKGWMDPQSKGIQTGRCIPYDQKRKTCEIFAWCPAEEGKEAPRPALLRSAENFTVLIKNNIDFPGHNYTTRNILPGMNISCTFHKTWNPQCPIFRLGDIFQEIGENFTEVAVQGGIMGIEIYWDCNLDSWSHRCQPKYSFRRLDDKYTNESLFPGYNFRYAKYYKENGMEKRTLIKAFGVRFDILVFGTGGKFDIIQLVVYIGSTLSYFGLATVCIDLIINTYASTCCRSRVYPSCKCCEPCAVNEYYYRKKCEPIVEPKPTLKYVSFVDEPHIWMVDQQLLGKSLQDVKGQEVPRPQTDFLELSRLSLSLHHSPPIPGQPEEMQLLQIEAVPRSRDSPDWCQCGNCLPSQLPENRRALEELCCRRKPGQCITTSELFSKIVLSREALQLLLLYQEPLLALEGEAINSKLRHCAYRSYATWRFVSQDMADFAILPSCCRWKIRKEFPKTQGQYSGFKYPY
Chain of UniProt O43237 (whole entry, looked up): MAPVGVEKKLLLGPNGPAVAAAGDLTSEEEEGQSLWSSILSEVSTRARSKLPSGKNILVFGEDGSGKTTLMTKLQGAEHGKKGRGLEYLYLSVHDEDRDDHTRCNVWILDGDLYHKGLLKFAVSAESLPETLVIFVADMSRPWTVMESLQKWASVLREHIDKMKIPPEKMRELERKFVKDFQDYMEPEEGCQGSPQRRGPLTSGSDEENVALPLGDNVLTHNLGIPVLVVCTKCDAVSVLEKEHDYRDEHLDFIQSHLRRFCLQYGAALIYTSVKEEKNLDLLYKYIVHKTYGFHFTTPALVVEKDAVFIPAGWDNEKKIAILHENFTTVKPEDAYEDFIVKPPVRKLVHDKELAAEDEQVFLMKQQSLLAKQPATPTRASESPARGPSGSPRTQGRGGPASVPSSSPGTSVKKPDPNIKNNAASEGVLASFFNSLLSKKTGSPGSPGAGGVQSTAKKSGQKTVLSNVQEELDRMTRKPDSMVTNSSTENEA
Chain of UniProt Q9UM73 (whole entry, looked up): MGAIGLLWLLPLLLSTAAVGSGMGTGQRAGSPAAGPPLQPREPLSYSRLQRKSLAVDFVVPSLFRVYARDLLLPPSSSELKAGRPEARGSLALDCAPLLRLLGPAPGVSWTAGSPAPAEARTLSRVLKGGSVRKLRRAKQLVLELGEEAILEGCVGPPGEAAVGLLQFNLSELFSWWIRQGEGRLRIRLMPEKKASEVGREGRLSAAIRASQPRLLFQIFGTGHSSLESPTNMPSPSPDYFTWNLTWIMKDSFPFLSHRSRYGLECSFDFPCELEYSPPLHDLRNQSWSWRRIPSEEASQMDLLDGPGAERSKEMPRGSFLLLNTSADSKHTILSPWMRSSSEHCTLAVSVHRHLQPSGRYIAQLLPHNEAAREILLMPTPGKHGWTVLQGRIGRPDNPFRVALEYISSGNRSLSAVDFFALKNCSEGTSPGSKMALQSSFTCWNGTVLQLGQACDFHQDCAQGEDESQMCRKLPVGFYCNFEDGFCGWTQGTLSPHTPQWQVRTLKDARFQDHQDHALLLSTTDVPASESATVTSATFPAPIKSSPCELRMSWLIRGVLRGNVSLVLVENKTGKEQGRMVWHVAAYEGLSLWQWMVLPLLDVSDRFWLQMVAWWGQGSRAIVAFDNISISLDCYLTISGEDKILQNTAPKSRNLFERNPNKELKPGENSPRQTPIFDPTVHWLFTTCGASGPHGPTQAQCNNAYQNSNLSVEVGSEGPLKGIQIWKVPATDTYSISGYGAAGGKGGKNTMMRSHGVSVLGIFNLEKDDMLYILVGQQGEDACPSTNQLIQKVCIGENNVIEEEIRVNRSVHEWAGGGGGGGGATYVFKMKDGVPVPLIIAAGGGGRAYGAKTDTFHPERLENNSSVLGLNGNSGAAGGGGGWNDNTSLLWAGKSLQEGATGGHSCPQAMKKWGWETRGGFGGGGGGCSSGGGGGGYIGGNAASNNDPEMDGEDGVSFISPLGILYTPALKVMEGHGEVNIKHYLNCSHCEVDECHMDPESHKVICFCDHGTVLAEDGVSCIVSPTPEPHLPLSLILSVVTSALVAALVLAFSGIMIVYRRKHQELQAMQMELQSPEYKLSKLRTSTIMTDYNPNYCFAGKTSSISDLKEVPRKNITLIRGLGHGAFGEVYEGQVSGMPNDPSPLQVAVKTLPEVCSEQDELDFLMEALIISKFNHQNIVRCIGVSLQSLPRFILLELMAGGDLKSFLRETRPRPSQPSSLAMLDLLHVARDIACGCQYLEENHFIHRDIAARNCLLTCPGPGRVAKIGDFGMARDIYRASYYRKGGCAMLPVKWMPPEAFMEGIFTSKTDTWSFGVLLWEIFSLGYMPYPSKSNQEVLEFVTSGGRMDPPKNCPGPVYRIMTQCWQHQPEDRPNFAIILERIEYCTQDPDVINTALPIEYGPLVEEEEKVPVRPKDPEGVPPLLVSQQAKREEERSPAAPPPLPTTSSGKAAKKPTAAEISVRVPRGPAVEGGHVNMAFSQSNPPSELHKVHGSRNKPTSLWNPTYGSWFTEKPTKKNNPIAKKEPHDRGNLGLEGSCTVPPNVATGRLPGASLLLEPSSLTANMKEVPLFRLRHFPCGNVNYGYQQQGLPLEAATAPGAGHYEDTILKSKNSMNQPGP
Chain of UniProt Q16774 (whole entry, looked up): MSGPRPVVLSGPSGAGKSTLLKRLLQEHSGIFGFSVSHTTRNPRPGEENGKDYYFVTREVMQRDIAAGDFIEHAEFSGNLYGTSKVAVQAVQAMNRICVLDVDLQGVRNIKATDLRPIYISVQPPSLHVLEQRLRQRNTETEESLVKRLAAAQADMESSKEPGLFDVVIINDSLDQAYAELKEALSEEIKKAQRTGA
Chain of UniProt Q9HC35 (whole entry, looked up): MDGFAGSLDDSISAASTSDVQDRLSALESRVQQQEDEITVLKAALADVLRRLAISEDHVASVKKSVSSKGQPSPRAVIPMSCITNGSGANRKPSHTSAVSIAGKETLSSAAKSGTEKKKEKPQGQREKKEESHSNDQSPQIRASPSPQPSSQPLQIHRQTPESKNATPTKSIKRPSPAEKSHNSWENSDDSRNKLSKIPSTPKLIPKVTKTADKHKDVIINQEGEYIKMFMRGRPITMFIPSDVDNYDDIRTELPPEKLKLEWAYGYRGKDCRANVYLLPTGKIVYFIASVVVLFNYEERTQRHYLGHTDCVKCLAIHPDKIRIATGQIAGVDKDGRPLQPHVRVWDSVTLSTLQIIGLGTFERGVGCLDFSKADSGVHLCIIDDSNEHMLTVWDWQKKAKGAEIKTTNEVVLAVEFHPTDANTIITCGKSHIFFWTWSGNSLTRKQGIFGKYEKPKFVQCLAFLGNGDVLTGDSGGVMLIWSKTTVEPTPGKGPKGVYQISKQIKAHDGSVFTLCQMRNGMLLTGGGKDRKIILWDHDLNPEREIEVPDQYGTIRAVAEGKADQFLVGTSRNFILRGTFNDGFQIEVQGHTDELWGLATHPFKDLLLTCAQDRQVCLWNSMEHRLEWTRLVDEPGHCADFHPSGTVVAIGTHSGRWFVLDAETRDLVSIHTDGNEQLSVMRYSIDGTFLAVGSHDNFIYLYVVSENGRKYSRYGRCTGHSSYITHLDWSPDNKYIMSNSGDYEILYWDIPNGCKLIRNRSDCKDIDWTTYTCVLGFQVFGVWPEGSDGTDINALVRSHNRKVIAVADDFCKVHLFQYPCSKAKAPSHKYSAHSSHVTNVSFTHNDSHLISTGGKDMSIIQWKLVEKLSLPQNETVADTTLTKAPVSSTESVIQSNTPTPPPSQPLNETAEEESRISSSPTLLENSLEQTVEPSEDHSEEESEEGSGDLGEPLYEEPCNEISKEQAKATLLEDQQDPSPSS
Chain of UniProt P50620 (whole entry, looked up): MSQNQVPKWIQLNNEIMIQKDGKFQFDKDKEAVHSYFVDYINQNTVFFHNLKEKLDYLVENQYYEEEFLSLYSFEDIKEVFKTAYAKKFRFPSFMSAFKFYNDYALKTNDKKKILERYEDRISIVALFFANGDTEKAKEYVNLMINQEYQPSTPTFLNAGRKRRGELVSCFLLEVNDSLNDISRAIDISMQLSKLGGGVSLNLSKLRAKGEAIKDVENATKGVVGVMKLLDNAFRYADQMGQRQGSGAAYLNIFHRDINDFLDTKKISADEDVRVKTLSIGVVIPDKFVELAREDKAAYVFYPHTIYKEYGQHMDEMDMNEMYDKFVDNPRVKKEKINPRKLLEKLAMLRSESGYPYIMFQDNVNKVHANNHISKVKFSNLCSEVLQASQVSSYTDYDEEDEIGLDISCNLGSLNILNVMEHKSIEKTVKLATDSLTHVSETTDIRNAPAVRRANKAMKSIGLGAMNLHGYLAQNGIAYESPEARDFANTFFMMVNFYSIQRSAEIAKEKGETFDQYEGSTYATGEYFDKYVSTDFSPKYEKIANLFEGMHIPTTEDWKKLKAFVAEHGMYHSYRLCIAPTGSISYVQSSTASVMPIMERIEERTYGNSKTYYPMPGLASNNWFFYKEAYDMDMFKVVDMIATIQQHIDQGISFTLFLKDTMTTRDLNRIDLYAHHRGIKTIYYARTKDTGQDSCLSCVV

SMILES	target	test	test system	conditions	scale	measurement	value
CC1(C)CN(CCCCC(=O)N[C@H](Cc2ccccc2)C(=O)N[C@H](Cc2ccccc2)C(=O)N[C@H](CCCCNC(=O)CCCCCCC(=O)NCCCC[C@H](NC(=O)N[C@@H](CCC(=O)O)C(=O)O)C(=O)O)C(=O)O)CC[N]2CC(C)(C)[S][Tc]2(=[O])[S]1 (some centres unmarked) [technetium-99m labelled]	Glutamate carboxypeptidase 2 (FOLH1, Homo sapiens, UniProt Q04609)	saturation binding	LNCaP			Bmax	4 µmol/mg
Nc1nc2c(ncn2[C@@H]2O[C@@H]3COP(=O)(O)O[C@H]3[C@H]2O)c(=O)[nH]1	Cone cGMP-gated channel (Morone saxatilis, UniProt Q3I0N1+Q3I0N2)	channel current, agonist, suction electrode	cone outer segments	single cone shown, added: 0 µM Ca2+		Hill coefficient	2
Cc1cn([C@H]2C[C@H](O)[C@@H](COP(=O)(O)OP(=O)(O)OP(=O)(O)O)O2)c(=O)[nH]c1=O	nrdE, with NrdF (Bacillus subtilis, UniProt P50620)	GDP reduction, allosteric activator		37 °C, added: Mn(III)2-Y• NrdF		apparent Km	1.2 ± 0.1 µM
Nc1ncnc2c1ncn2[C@@H]1O[C@H](COP(=O)(O)OP(=O)(O)OP(=O)(O)O)[C@@H](O)[C@H]1O	P2X purinoceptor 7 (P2rx7, Rattus norvegicus, UniProt Q64663, Q143A/R125A)	ion current, agonist, two-electrode voltage clamp	Xenopus laevis oocytes	19 µM	relative to: highest concentration response	normalized current	0.0171 and 0.0283 and 0.024
COc1cc(-c2cncc3c2CN(C)Cc2cc(N4CCNCC4)ccc2-3)cc(OC)c1OC	AKT1	kinase activity		1 µM, human enzyme, added: ATP 10 µM	relative to: DMSO control	remaining activity	92%
CC[C@H](C)[C@H](NC(=O)[C@H](Cc1ccccc1)NC(=O)[C@H](CCC(=O)O)NC(=O)[C@H](CCCNC(=N)N)NC(=O)[C@H](C)NC(=O)[C@H](C)NC(=O)[C@H](CCC(N)=O)NC(=O)[C@H](CCC(=O)O)NC(=O)[C@H](CCC(=O)O)NC(=O)[C@H](CC(C)C)NC(=O)[C@H](Cc1ccc(O)cc1)NC(=O)[C@H](CO)NC(=O)[C@H](CO)NC(=O)[C@@H](NC(=O)[C@H](CC(=O)O)NC(=O)[C@H](CO)NC(=O)[C@@H](NC(=O)[C@H](Cc1ccccc1)NC(=O)[C@@H](NC(=O)CNC(=O)[C@H](CCC(=O)O)NC(=O)[C@H](C)NC(=O)CCc1cnc[nH]1)[C@@H](C)O)[C@@H](C)O)C(C)C)C(=O)N[C@@H](C)C(=O)N[C@@H](Cc1c[nH]c2ccccc12)C(=O)N[C@@H](CC(C)C)C(=O)N[C@H](C(=O)N[C@@H](CCCNC(=N)N)C(=O)NCC(=O)N[C@@H](CCCNC(=N)N)C(=O)N[C@@H](CCCCNC(=O)COCCOCCNC(=O)COCCOCCNC(=O)CC[C@H](NC(=O)CCCCCCCCCCCCCCCCC(=O)O)C(=O)O)C(=O)NCC(=O)NCC(=O)N[C@@H](CO)C(=O)N[C@@H](CCCCNC(=O)[C@H](CCCCNC(=O)[C@H](CCCCNc1c(NCCCCCN(O)C(=O)CCC(=O)NCCCCCN(O)C(=O)CCC(=O)NCCCCCN(O)C(C)=O)c(=O)c1=O)Nc1c(NCCCCCN(O)C(=O)CCC(=O)NCCCCCN(O)C(=O)CCC(=O)NCCCCCN(O)C(C)=O)c(=O)c1=O)NC(=O)[C@H](CCCCNc1c(NCCCCCN(O)C(=O)CCC(=O)NCCCCCN(O)C(=O)CCC(=O)NCCCCCN(O)C(C)=O)c(=O)c1=O)Nc1c(NCCCCCN(O)C(=O)CCC(=O)NCCCCCN(O)C(=O)CCC(=O)NCCCCCN(O)C(C)=O)c(=O)c1=O)C(=O)O)C(C)C	GLP1R	agonist, CRE luciferase reporter	BHK cells	Zr-loaded DFO conjugate, added: 0% HSA	relative to: parent peptide	fold potency loss	3.8
COc1cc(C[C@H]2C(=O)OC[C@@H]2Cc2ccc(OC)c(OC)c2)ccc1O	3',5'-cyclic-AMP phosphodiesterase 4D (PDE4D, Homo sapiens, UniProt Q08499)	isothermal titration calorimetry				ΔH	-9.17 ± 0.39 kcal/mol
CC[C@H](C)[C@H](NC(=O)[C@H](Cc1ccccc1)NC(=O)[C@H](CCC(=O)O)NC(=O)[C@H](CCCNC(=N)N)NC(=O)[C@H](C)NC(=O)[C@H](C)NC(=O)[C@H](CCC(N)=O)NC(=O)[C@H](CCCCNc1c(NCCCCCN(O)C(=O)CCC(=O)NCCCCCN(O)C(=O)CCC(=O)NCCCCCN(O)C(C)=O)c(=O)c1=O)NC(=O)[C@H](CCC(=O)O)NC(=O)[C@H](CC(C)C)NC(=O)[C@H](Cc1ccc(O)cc1)NC(=O)[C@H](CO)NC(=O)[C@H](CO)NC(=O)[C@H](CCCCNc1c(NCCCCCN(O)C(=O)CCC(=O)NCCCCCN(O)C(=O)CCC(=O)NCCCCCN(O)C(C)=O)c(=O)c1=O)NC(=O)[C@H](CC(=O)O)NC(=O)[C@H](CO)NC(=O)[C@@H](NC(=O)[C@H](Cc1ccccc1)NC(=O)[C@@H](NC(=O)CNC(=O)[C@H](CCC(=O)O)NC(=O)[C@H](C)NC(=O)CCc1cnc[nH]1)[C@@H](C)O)[C@@H](C)O)C(=O)N[C@@H](C)C(=O)N[C@@H](Cc1c[nH]c2ccccc12)C(=O)N[C@@H](CC(C)C)C(=O)N[C@H](C(=O)N[C@@H](CCCNC(=N)N)C(=O)NCC(=O)N[C@@H](CCCNC(=N)N)C(=O)N[C@@H](CCCCNC(=O)COCCOCCNC(=O)COCCOCCNC(=O)CC[C@H](NC(=O)CCCCCCCCCCCCCCCCC(=O)O)C(=O)O)C(=O)O)C(C)C	GLP1R	agonist, CRE luciferase reporter	BHK cells	Zr-loaded DFO conjugate, added: 1% HSA	relative to: parent peptide	fold potency loss	21.4
NC(N)=NN=C(C=Cc1ccc([N+](=O)[O-])o1)C=Cc1ccc([N+](=O)[O-])o1	NanoBiT HiBiT/LgBiT luciferase	inhibitor, HiBiT luminescence counterscreen	conditioned medium only	1.66 µM, 24 h	relative to: vehicle	luminescence signal reduction	-5.07%
CC[C@H](C)[C@H](NC(=O)[C@H](Cc1ccccc1)NC(=O)[C@H](CCC(=O)O)NC(=O)[C@H](CCCNC(=N)N)NC(=O)[C@H](C)NC(=O)[C@H](C)NC(=O)[C@H](CCC(N)=O)NC(=O)[C@H](CCC(=O)O)NC(=O)[C@H](CCC(=O)O)NC(=O)[C@H](CC(C)C)NC(=O)[C@H](Cc1ccc(O)cc1)NC(=O)[C@H](CO)NC(=O)[C@H](CO)NC(=O)[C@@H](NC(=O)[C@H](CC(=O)O)NC(=O)[C@H](CO)NC(=O)[C@@H](NC(=O)[C@H](Cc1ccccc1)NC(=O)[C@@H](NC(=O)CNC(=O)[C@H](CCC(=O)O)NC(=O)[C@H](C)NC(=O)CCc1cnc[nH]1)[C@@H](C)O)[C@@H](C)O)C(C)C)C(=O)N[C@@H](C)C(=O)N[C@@H](Cc1c[nH]c2ccccc12)C(=O)N[C@@H](CC(C)C)C(=O)N[C@H](C(=O)N[C@@H](CCCNC(=N)N)C(=O)NCC(=O)N[C@@H](CCCNC(=N)N)C(=O)N[C@@H](CCCCNC(=O)COCCOCCNC(=O)COCCOCCNC(=O)CC[C@H](NC(=O)CCCCCCCCCCCCCCCCC(=O)O)C(=O)O)C(=O)NCC(=O)NCC(=O)N[C@@H](CO)C(=O)N[C@@H](CCCCNc1c(NCCCCCN(O)C(=O)CCC(=O)NCCCCCN(O)C(=O)CCC(=O)NCCCCCN(O)C(C)=O)c(=O)c1=O)C(=O)NCC(=O)NCC(=O)N[C@@H](CO)C(=O)N[C@@H](CCCCNc1c(NCCCCCN(O)C(=O)CCC(=O)NCCCCCN(O)C(=O)CCC(=O)NCCCCCN(O)C(C)=O)c(=O)c1=O)C(=O)NCC(=O)NCC(=O)N[C@@H](CO)C(=O)N[C@@H](CCCCNc1c(NCCCCCN(O)C(=O)CCC(=O)NCCCCCN(O)C(=O)CCC(=O)NCCCCCN(O)C(C)=O)c(=O)c1=O)C(=O)NCC(=O)NCC(=O)N[C@@H](CO)C(=O)N[C@@H](CCCCNc1c(NCCCCCN(O)C(=O)CCC(=O)NCCCCCN(O)C(=O)CCC(=O)NCCCCCN(O)C(C)=O)c(=O)c1=O)C(=O)O)C(C)C	GLP1R	agonist, CRE luciferase reporter	BHK cells	Zr-loaded DFO conjugate, added: 0% HSA	relative to: parent peptide	fold potency loss	10.5
[O-][S+]1CCCCS1 (centres unmarked)	Superoxide dismutase [Cu-Zn] (SOD1, Homo sapiens, UniProt P00441, G94A)	intact protein LC-MS	SOD1 G93A transgenic mice, whole blood	oral, 150 mg/kg, 8 h, mean of two mice		target engagement	50.8 % cross-linked dimer
O=c1nc(SCc2cc(F)cc(C(F)(F)F)c2)nc(SCc2ccc3nc(Cl)ccc3c2)[nH]1	DNA topoisomerase 2-alpha (TOP2A, Homo sapiens, UniProt P11388)	DNA cleavage		7.8 µM, replicate 1		linear DNA	0%
Cc1cccc(N2CC(C(=O)O)CC2=O)c1 (centres unmarked)	Transcription intermediary factor 1-alpha, PHD-bromodomain (TRIM24, Homo sapiens, UniProt O15164)	binding, affinity selection mass spectrometry			relative to: other proteins in batch	log fold enrichment	0.0794
O=C(COP(=O)(O)O)[C@@H](O)[C@H](O)[C@H](O)COP(=O)(O)O	Cytoplasmic dynein 1 light intermediate chain 2 (Homo sapiens, UniProt O43237)	thermal proteome profiling, refers to: DYNC1LI2	HepG2 cell lysate	concentration not given, 57 over 37 °C	relative to: compound over control	thermal stability ratio	0.68 and 0.457 and 0.375
CC1(C)C(/C=C/C=C2/N(CCCc3ccccc3)c3ccc4ccccc4c3C2(C)C)=[N+](CCCc2ccccc2)c2ccc3ccccc3c21.[Br-]	Histone-arginine methyltransferase CARM1 (CARM1, Homo sapiens, UniProt Q86X55)	inhibitor, filter binding		added: histone H3.3 substrate		Hill coefficient	3.12
O=C[C@H](O)[C@@H](O)[C@H](O[C@@H]1O[C@H](CO)[C@@H](O)[C@H](O)[C@H]1O)[C@H](O)CO	uncharacterized protein (Pelagibacter ubique, UniProt Q4FMK2)	isothermal titration calorimetry	Candidatus Pelagibacter ubique	concentration not given		binding	no binding
COc1cc(N2CCC(N3CCN(C)CC3)CC2)ccc1Nc1ncc(Cl)c(Nc2ccccc2P(C)(C)=O)n1	ALK tyrosine kinase receptor/Echinoderm microtubule-associated protein-like 4 (Homo sapiens, UniProt Q9HC35+Q9UM73)	degrader, immunoblotting, refers to: ALK tyrosine kinase receptor/Echinoderm microtubule-associated protein-like 4	Ba/F3 EML4-ALK	concentration not given, 0.5 h, unit not given	relative to: untreated	protein level	1.07 and 1.09 and 0.986
CCO[C@H](COc1ccc(C(F)(F)F)cc1)CSc1ccc(OCC(=O)O)c(C)c1	Peroxisome proliferator-activated receptor delta (Rattus norvegicus, UniProt Q62879)	reporter gene, agonist, luciferase reporter	rat		relative to: maximal control activation	Emax	66%
CC[C@H](C)[C@@H]1NC(=O)[C@H](Cc2ccc(O)cc2)NC(=O)CSC[C@@H](C(N)=O)NC(=O)CNC(=O)[C@H](Cc2c[nH]cn2)NC(=O)[C@H](CCCNC(=N)N)NC(=O)[C@H](CC(N)=O)NC(=O)[C@@H]2CCCN2C(=O)[C@H](Cc2ccccc2)NC(=O)[C@H]([C@@H](C)O)NC(=O)CNC(=O)[C@H](CC(C)C)NC(=O)[C@@H]2CCCN2C(=O)[C@H]([C@@H](C)O)NC(=O)[C@H](CCCCN)NC1=O	Vacuolar protein sorting-associated protein 29 (VPS29, Homo sapiens, UniProt Q9UBQ0)	binding, ITC		25 °C, protein alone		-TΔS	3.2 ± 1 kcal/mol
Cc1cc(-c2ccnc3[nH]cc(F)c23)cc(F)c1[C@@]1(O)[C@H](C)CN(C2CCS(=O)(=O)CC2)C[C@@H]1C	AKT1	ATP/ADP probe binding, KiNativ	HEK293T lysate	10 µM, ATP loop peptide		probe labelling inhibition	-40.5%
CC(=O)N[C@H]1[C@H]([C@H](O)[C@H](O)CO)OC(O[C@H]2[C@@H](O)[C@@H](CO)O[C@@H](Oc3ccc([N+](=O)[O-])cc3)[C@@H]2O)(C(=O)O)C[C@@H]1O (some centres unmarked)	Sialidase-2 (Homo sapiens, UniProt Q9Y3R4)	substrate		0.3 mM, 30 min, pH 5.0, 37 °C		sialic acid release	75%
COc1cc(Nc2ncc3c(n2)-c2ccc(Cl)cc2C(c2c(F)cccc2OC)=NC3)ccc1C(=O)O	IRAK4	kinase activity		1 µM		remaining activity	91%
c1ccc(C(NCc2cccnc2)(c2ccccc2)c2ccccc2)cc1	Potassium voltage-gated channel subfamily KQT member 1, with KCNE1 (KCNQ1, Homo sapiens, UniProt P51787)	IKs peak current, whole-cell patch clamp	tsA201 with KCNQ1-KCNE1 fusion			Hill coefficient	0.91
CCN1CCC[C@H]1CNC(=O)c1c(O)c(Cl)cc(Cl)c1OC	G-protein coupled receptor 39 (GPR39, Homo sapiens, UniProt O43194)	β-arrestin recruitment, TANGO luminescence		concentration not given	relative to: basal luminescence	log2 fold change	0.166
Nc1nc2c(ncn2[C@@H]2O[C@H](COP(=O)(O)O)[C@@H](O)[C@H]2O)c(=O)[nH]1	GUK1 (Homo sapiens, UniProt Q16774)	enzyme activity, NADH-coupled		31.25 µM, added: KCl 150 mM		reaction velocity	0.0614 µM/s and 0.0635 µM/s and 0.0478 µM/s
Nc1ncnc2c1ncn2[C@@H]1O[C@H](COP(=O)(O)OP(=O)(O)OP(=O)(O)O)[C@@H](O)[C@H]1O	Creatine kinase U-type, mitochondrial (CKMT1A, Homo sapiens, UniProt P12532, E265Q)	substrate, ADP-Glo luminescence		pH 8.5, forward reaction, E227Q mutant, added: second substrate in excess		kcat	0.0003 ± 0.0001 s⁻¹
